Published values of several laboratories.
Lines come from different studies, so protocols differ. “And” joins repeats or separate records; there may be more than shown. ± gives the spread as reported.

CN1C(=O)[C@@H](Cc2ccc(O)c(I)c2)NC(=O)CNC(=O)[C@H](Cc2ccc3ccccc3c2)NC(=O)[C@H](CCCNC(=N)N)NC(=O)[C@H]1CCCNC(=O)c1ccc(CNC(=O)CN2CCN(CC(=O)O)CCN(CC(=O)O)CCN(CC(=O)O)CC2)cc1 [lutetium-177 labelled]  total absorbed dose (2; human, extrapolated from mouse, osteogenic cells): 0.048 mGy/MBq
CCC(=O)N(C)c1ccc(Cl)c(Cl)c1  plasma concentration (female C57BL/6 mice; subcutaneous, 2 mg/kg, 0.083 h): 370 ng/mL
CCC(C(=O)Nc1ccc(C(N)=O)c(F)c1)n1cc(OC)c(-c2cc(Cl)ccc2-n2cc(C(F)(F)F)nn2)cc1=O (stereo not shown)  mild drug-related adverse events (healthy male humans; 50 mg, maximum intensity, together with: omeprazole): 0%
CCCCN1C(=O)c2cccc3c(NCCCCN4CCOCC4)ccc(c23)C1=O  molar extinction coefficient (ethylene glycol): 8800 M⁻¹ cm⁻¹
N=C(N)NCCC[C@@H]1NC(=O)[C@H](CO)NC(=O)[C@@H](NC(=O)[C@H](CO)NC(=O)[C@H](CO)NC(=O)[C@H](Cc2c[nH]c3ccccc23)NC(=O)CNC(=O)[C@H](CO)NC(=O)[C@@H](N)Cc2c[nH]c3ccccc23)CSSC[C@@H](C(=O)NCC(=O)O)NC(=O)[C@H](CO)NC1=O  Tmax (patients, plasma; intravenous, 10 mg/kg, thrice weekly, median): 0.14 h
CCCCN1C(=O)c2cccc3c(NCCCCCCCCN4CCOCC4)ccc(c23)C1=O  molar extinction coefficient (DMF): 12200 M⁻¹ cm⁻¹
Cc1cc(C(=O)N[C@@H](CC(=O)NC(C)(C)C)C(=O)NCCNC(=O)c2cc(-c3ccccc3)ccn2)no1  mean residence time (mouse, plasma; intravenous, 0.1 mg/kg): 0.27 h
C=C(NC(=O)c1csc(-c2nc3c(cc2O)-c2nc(cs2)C(=O)NC(C(C)O)C(=O)NC(=C(C)OC)c2nc(cs2)C(=O)NC2c4nc(cs4)C(=O)NC(COC(=O)c4c5c6c(cccc6n4O)COC(=O)C(OC4CC(C)(O)C(N(C)C)C(C)O4)C2OC5)c2nc-3cs2)n1)C(N)=O (stereo not shown)  Cmax (Sprague-Dawley rat, male, plasma; intravenous infusion, 6 mg/kg, multiple doses, day 7): 3160 ng/mL
CC(C)C[C@H](NC(=O)[C@H](CCCN)NC(=O)CNC(=O)[C@@H](NC(=O)[C@H](C)NC(=O)[C@@H]1CSCSC[C@H](NC(=O)CC[C@H](N)C(=O)O)C(=O)N[C@@H](CC(N)=O)C(=O)N[C@@H]([C@@H](C)O)C(=O)N[C@@H](C)C(=O)N[C@@H]([C@@H](C)O)C(=O)N1)[C@@H](C)O)C(=O)N[C@@H](C)C(=O)N[C@@H](CCC(=O)O)C(=O)N[C@@](C)(Cc1ccccc1)C(=O)N[C@@H](CC(C)C)C(=O)N[C@H](C(=O)N[C@@H](CCCNC(=N)N)C(=O)N[C@@H](CO)C(=O)N[C@@H](CO)C(=O)N[C@@H](CC(N)=O)C(=O)N(C)[C@@H](CC(N)=O)C(=O)N[C@@H](Cc1ccccc1)C(=O)NCC(=O)N1CCC[C@H]1C(=O)N[C@@H](CCCCNC(=O)CC[C@H](NC(=O)CC[C@H](NC(=O)CCCCCCCCCCCCCCCCCCC(=O)O)C(=O)O)C(=O)O)C(=O)N[C@@H](CC(C)C)C(=O)N1CCC[C@H]1C(=O)N1CCC[C@H]1C(=O)N[C@H](C(=O)N[C@@H](CCC(=O)O)C(=O)N[C@H](C(=O)NCC(=O)N[C@@H](CO)C(=O)N[C@@H](CC(N)=O)C(=O)N[C@H](C(=O)N[C@@H](Cc1ccc(O)cc1)C(N)=O)[C@@H](C)O)C(C)C)[C@@H](C)O)C(C)C  AUC(0-tlast) (healthy human, plasma; subcutaneous, 0.04 mg single dose, geometric LS mean): 1830 ng·h/mL
CCCC[C@H](OC(C)=O)c1ccccc1C(=O)O  MRT(0-inf) (Sprague-Dawley rats, both sexes, whole blood; intravenous, 5 mg/kg single dose): 3.4 ± 1.5 h
O=C([O-])CN1CCN(CC(=O)[O-])CCN(CC(CCCc2ccccc2[N+](=O)[O-])N(CC(=O)[O-])CC(=O)[O-])CC1.[177Lu+3] (stereo not shown)  intact radiolabelled complex (TLC; human serum; 3 h, pH 7, 37 °C): 100%
CCCCN1C(=O)c2cccc3c(NCCCCCCN4CCOCC4)ccc(c23)C1=O  fluorescence quantum yield (DMSO): 0.99
COCC1CN(C2CCN(c3cc(OC)c(Nc4ncc(Br)c(Nc5ccc6c(c5P(C)(C)=O)OCCO6)n4)cc3C)CC2)C1  Tmax (EGFR-mutant NSCLC patients, plasma; oral, 240 mg single dose, median): 3.98 h
O=C(Nc1cnccc1-c1ccc([18F])cc1)c1ccnc(NC(=O)C2CC2)c1  mean SUV (ex vivo gamma counting; FVB/NJ mice, both sexes, caudate nucleus; intravenous, 120 min): 0.06
CCCC[C@H](NC(=O)CNC(=O)CNC(=O)[C@H](CCCCNC(=O)[C@H](CC(=O)O)NC(=O)C(C)c1ccc(CC(C)C)cc1)NC(=O)CN1CCN(CC(=O)O)CCN(CC(=O)O)CCN(CC(=O)O)CC1)C(=O)N[C@H]1CC(=O)NCCCC[C@@H](C(N)=O)NC(=O)[C@H](Cc2c[nH]c3ccccc23)NC(=O)[C@H](CCCNC(=N)N)NC(=O)[C@@H](Cc2ccccc2)NC(=O)[C@H](Cc2c[nH]cn2)NC1=O (stereo partly shown) [lutetium-177 labelled]  tumour-to-tissue ratio (C57 mice, tumour; intravenous, 0.037 MBq, 4 h; baseline: lung): 41.1
CCCCN1C(=O)c2cccc3c(NCCCCCCCCCCN4CCOCC4)ccc(c23)C1=O  fluorescence lifetime (dichloromethane): 10.4 ns
O=C(Nc1cnccc1-c1ccc([18F])nc1)c1ccnc(NC(=O)C2CC2)c1  mean SUV (ex vivo gamma counting; GSK-3β transgenic mice, early-stage, caudate nucleus; intravenous, 120 min, together with: tariquidar 15 mg/kg iv): 0.069
Cc1nn(-c2nc3c(F)cc(F)cc3s2)c(O)c1C(c1ccc(C(F)(F)F)cc1)c1c(C)nn(-c2nc3c(F)cc(F)cc3s2)c1O  AUC(all) (ICR mouse, plasma; intraperitoneal, 10 mg/kg): 26400 ng·h/mL and 26000 ng·h/mL and 28700 ng·h/mL
C=CC(=O)Nc1cc(Nc2nccc(-c3c[nH]c4ccccc34)n2)c(OC)cc1N(C)CCN(C)C  recovery (human plasma; 24 h, storage stability, LLOQ sample): 55.4%
